Assay results gathered from unrelated publications.
Every numbered part comes from another study and shows a few of its results, in no order.

Series 1
Target: PABPC1L2, full length, GST fusion (mouse, UniProt A0ABA7IW68)
Technique: RNAcompete
Molecule type: RNA
Matrix: in vitro
Concentration: 20 nM
Notes: 7-mer, probes averaged, single round
Reference: mean of 7-mers
Reading: higher = stronger binding
Residues (chain): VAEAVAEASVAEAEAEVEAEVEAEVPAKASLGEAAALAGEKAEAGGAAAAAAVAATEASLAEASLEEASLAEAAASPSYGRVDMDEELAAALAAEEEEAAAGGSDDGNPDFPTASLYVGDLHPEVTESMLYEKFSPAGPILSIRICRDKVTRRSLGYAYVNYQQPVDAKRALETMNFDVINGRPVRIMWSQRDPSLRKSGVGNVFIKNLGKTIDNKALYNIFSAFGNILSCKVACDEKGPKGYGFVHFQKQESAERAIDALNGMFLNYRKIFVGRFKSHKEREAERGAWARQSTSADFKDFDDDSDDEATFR
`UAGCUGA` has a 7-mer Z-score of -0.0192.
For `ACGCGCU`, the 7-mer Z-score was -0.251.
`CGGUGAA` has a 7-mer Z-score of -0.0953.
With `UUACCAU` the 7-mer Z-score was -0.278.
With `CAUCUGG` the 7-mer Z-score was -0.115.
`AGUCCGC` has a 7-mer Z-score of -0.507.
The 7-mer Z-score of `AGUAAUA` is reported as -0.0301.
`CCGACUG` has a 7-mer Z-score of -0.0663.
The 7-mer Z-score of `GUAGAAG` is reported as 0.0189.

Series 2
Target: Histone acetyltransferase KAT6A, winged helix 2, GST fusion (KAT6A, Homo sapiens, UniProt Q92794, residues 85-181)
Technique: protein binding microarray
Molecule type: double-stranded DNA, one strand shown
Matrix: in vitro
Concentration: not given
Notes: 8-mer, flanks averaged, mean of 2 arrays, mostly near background
Reference: not given
Reading: higher = stronger binding
Target sequence (chain): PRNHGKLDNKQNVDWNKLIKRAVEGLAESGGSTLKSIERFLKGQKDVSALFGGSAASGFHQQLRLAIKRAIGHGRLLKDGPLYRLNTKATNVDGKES
`GATAATTA` has an E-score of 0.0626.
`ACAACCCC` gave an E-score of -0.307.
`AACCGCCG` has an E-score of 0.0654.
The E-score of `TGCGGACA` is reported as 0.0844.
With `GGCGACCC` the E-score was 0.0357.
For `AAAGCTCA`, the E-score was -0.0399.
`GAACAGTA` gave an E-score of 0.0265.
The E-score of `AACAACAT` is reported as 0.0225.
With `GTCGGCCA` the E-score was 0.056.
For `CGGGTGCC`, the E-score was 0.197.

Series 3
Target: Interferon regulatory factor 7, full length, phosphomimetic (IRF7, Homo sapiens, UniProt Q92985, residues 1-503, S471D/S472D/S475D/S476D/S477D/S483D/S484D/S487D)
Chain of UniProt Q92985 (whole entry, unmodified, looked up): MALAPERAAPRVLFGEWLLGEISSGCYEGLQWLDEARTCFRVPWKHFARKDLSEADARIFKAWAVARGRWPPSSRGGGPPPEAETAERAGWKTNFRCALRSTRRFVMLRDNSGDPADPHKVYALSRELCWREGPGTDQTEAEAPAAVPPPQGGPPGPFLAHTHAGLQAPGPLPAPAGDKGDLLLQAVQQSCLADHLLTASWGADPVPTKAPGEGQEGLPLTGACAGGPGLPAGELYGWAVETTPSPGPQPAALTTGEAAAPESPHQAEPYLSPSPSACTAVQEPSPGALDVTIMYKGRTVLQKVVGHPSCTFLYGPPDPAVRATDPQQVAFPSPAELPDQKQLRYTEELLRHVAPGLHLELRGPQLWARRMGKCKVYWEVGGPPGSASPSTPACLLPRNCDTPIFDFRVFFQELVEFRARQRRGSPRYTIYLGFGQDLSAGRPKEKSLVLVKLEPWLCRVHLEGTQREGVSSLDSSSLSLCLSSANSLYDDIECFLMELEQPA
Technique: protein-binding microarray
Molecule type: double-stranded DNA, one strand shown
Matrix: in vitro
Concentration: 2200 nM top
Notes: 60-bp whole probe
With: salmon DNA 0.4 mg/ml
Reference: random background probes
Reading: higher = stronger binding
All sequences stand within: GCCTAGCAC … GTCTTGATTCGCTTGACGCTGCTG
`ACTCATTTTCATTTTGTGTCGTGCTAG`: “fitted relative affinity” 6.94 z-score.
`TCAGATGCCTTTCTCTTACTGTGCTAG`: “fitted relative affinity” 1.18 z-score.
For `CACGATATCAGTTTCGAGACGTGCTAG`, “fitted relative affinity” read 3.86 z-score.
Under “fitted relative affinity”, `TCTCATTTCCAATTACCTTTGTGCTAG` is recorded as 2.98 z-score.
Under “fitted relative affinity”, `GACGAACTGAGTCTCGAGTCGTGCTAG` is recorded as 0.376 z-score.
`ACCATTTTGGTTTTCCTTATGTGCTAG` — result for “fitted relative affinity”: 3.42 z-score.
Under “fitted relative affinity”, `CAAATACTCTTCCATGGAGAAGTGCTA` is recorded as 0.0538 z-score.

Other studies, line by line
`PhoQ, residues 284 288 289 292 302 303 SCKMEA` gave a fold induction of 4.28 (PhoP, residues 12 14 15 18 19 LYFRQ (Escherichia coli, UniProt P23836); Sort-seq, refers to: YFP reporter; E. coli; PhoQ-PhoP variant library, with: 10 µM Mg2+; reference: high Mg2+ state, higher = stronger signaling).
